Assay results collected from several papers.
Compare with care: the assays were run in different laboratories. ± gives the spread as reported. Converted amounts (≈) assume the structure as drawn.

| SMILES | assay | system | setting | scale | endpoint | result |
| --- | --- | --- | --- | --- | --- | --- |
| N#Cc1ccc2c(c1)[C@H]1CCCN(C(=O)c3ccc4[nH]cnc4c3)[C@H]1C2 |  | human females | 80 mg, end of trial |  | total testosterone | 1.4 nmol/L |
| O=C(CSc1nnc(-c2ccccc2O)n1-c1ccccc1)Nc1cccc(C(=O)O)c1 |  | aqueous buffer | pH 7.4 |  | thermodynamic solubility | 90.3 µM (≈ 40.3 µg/mL) |
| C[C@@H]1CCO[C@H]2Cn3cc(C(=O)NCc4ccc(F)cc4F)c(=O)c(O)c3C(=O)N12 | population PK, post-hoc | children, 10 to <14 kg, plasma | oral, 8 mg granules, 24 h, steady state, geometric mean |  | plasma concentration | 508 ng/mL |
| O=C(N[C@H](Cc1c[nH]c2ccccc12)C(=O)Nc1ccncc1)c1ccc(N2CCN(c3ccc(F)c(F)c3)CC2)cc1F |  | Swiss Webster mouse, female, liver | oral, 50 mg/kg, 2 h, 20% HPβCD vehicle |  | concentration | 10.8 µM |
| CNC(=O)c1ccc(-c2nn3c(Cc4ccc5ncccc5c4)cnc3[nH]c2=O)cc1F |  | human plasma | -20 °C |  | storage stability | ≥ 275 days |
| CCc1cc(C(=O)NC)c2nccc(N3CCc4c(cc(Cn5ccnc5)cc4-c4cn(C)nc4C(F)(F)F)C3=O)c2c1 |  | Sprague Dawley rat | oral, 100 mg/kg once daily, day 4, 7-day toxicology study |  | body weight | 243 ± 5.6 g |
| c1ccc(-c2nc(N3CCCC3c3ccccn3)c3ccccc3n2)nc1 (stereo not drawn) |  | Japanese Pharmacopoeia disintegration test solution 2 | pH 6.8 |  | kinetic solubility | 90 µg/mL (≈ 255 µM) |
| CC(C)c1nc(N(C)S(C)(=O)=O)nc(-c2ccc(F)cc2)c1/C=C/[C@@H](O)C[C@@H](O)CC(=O)O | item: Dizziness | human | oral, 10 mg |  | participants with TEAE | 0% |
| NC(=O)N1c2ccccc2CC(O)c2ccccc21 (stereo not drawn) | population PK modelling | human patients, plasma | weight-scaled, estimated exponents |  | clearance | 2.85 L/h |
| CCOc1nc2cccc(C(=O)O)c2n1Cc1ccc(-c2ccccc2-c2nnn[nH]2)cc1 | shake-flask | Cremophor ELP | 37 °C, water up to 0.5% w/w |  | thermodynamic solubility | 4.93 ± 0.31 mg/g |
| CN(CCCN1CCN(C(=O)CN2CCN(CC(=O)[O-])CCN(CC(=O)[O-])CCN(CC(=O)[O-])CC2)CC1)c1ccc2nccc(C(=O)NCC(=O)N3CC(F)(F)C[C@H]3C#N)c2c1.[68Ga+3] |  | mouse HT-1080-hFAP and HT-1080 xenografts, femur | intravenous, 500 pmol, 4 h |  | uptake | 0.5 ± 0.1 %IA/g |
| CCCCOC(=O)N1CCN(C(=O)[C@H](CP(=O)(O)O)NC(=O)c2cc(N3CC[C@H](OC)C3)nc(-c3ccccc3)n2)CC1 | item: haematocrit | human, blood | 8 mg, 24 h post-dose |  | change from baseline | -0.001 ± 0.028 L/L |
| Cc1cccc(CNC(=O)c2cn(CCNC(=O)c3ccccc3S)c3cc4c(cc3c2=O)OC(F)(F)O4)n1 |  | Sprague-Dawley rat, male, plasma | intramuscular, 30 mg/kg of parent compound |  | Cmax | 11.9 ± 3.71 ng/mL |
| O=C(Nc1ccc(OC(F)(F)Cl)cc1)c1cnc(N2CC[C@@H](O)C2)c(-c2ccn[nH]2)c1 | per laboratory record, item: bilirubin increase | human patients | oral, dose not given, dose-finding study |  | grade ≥2 event rate | 1% |
| CC(C)[C@@H](CN1CC[C@@](C)(c2cccc(O)c2)[C@@H](C)C1)NC(=O)[C@H]1Cc2ccc(O)cc2CN1 |  | Sprague-Dawley rat, plasma | intraperitoneal, 3 mg/kg |  | AUClast | 784 ng·h/mL |
| NC(=O)N1c2ccccc2C=Cc2ccccc21 | item: general and administration site (SOC) | human male | oral, dose not given, CTCAE on-treatment AEs |  | adverse events incidence | 27% |
| Cc1nc2cccc(OCC(C)(C)C(=O)NC(C)C)c2c(N)c1C(=O)O |  | Sprague-Dawley rat, male, plasma | oral, 100 mg/kg, day 7 over day 1, 7-day repeated dosing | baseline: day 7 over day 1 | AUClast ratio | 1.05 ± 0.45 |
| CCCC[C@H]1CC[C@H](c2ccc(C#N)cc2)CC1 |  | Sprague-Dawley rat, female, fetus | 5000 ng/mL in perfusate, 50 (unit not given), high dose, mixture of 21 LCMs |  | median fetal accumulation | 1.65 ng/g |
| CC(C)=CCC/C(C)=C/C(=O)O.Cc1cc(/C=C/C#N)cc(C)c1Nc1ccnc(Nc2ccc(C#N)cc2)n1 |  | Peceol |  |  | kinetic solubility | < 50000 µg/mL |
| O=C(Nc1nc2cccc(-c3ccc(CN4CCS(=O)(=O)CC4)cc3)n2n1)C1CC1 | item: abdominal discomfort | rheumatoid arthritis patients | oral, 100 mg twice daily, 4 weeks |  | patients with TEAE | 8.3% |
| CC(C)C[C@H](NC(=O)[C@H](CC(C)C)NC(=O)[C@H](Cc1c[nH]c2ccccc12)NC(=O)[C@H](CCC(=O)O)NC(=O)[C@@H](NC(=O)[C@H](Cc1ccccc1)NC(=O)[C@H](CCC(=O)O)NC(=O)[C@H](CCCCNC(=O)COCCOCCNC(=O)COCCOCCNC(=O)CC[C@H](NC(=O)CCCCCCCCCCCCCCCCCCC(=O)O)C(=O)O)NC(=O)[C@H](C)NC(=O)[C@H](CCCCN)NC(=O)[C@H](CCCCN)NC(=O)[C@H](CCC(=O)O)NC(=O)[C@H](CC(=O)O)NC(=O)[C@H](CC(C)C)NC(=O)[C@H](Cc1ccc(O)cc1)NC(=O)[C@H](CCCCN)NC(=O)[C@H](CO)NC(=O)[C@H](Cc1ccc(O)cc1)NC(=O)[C@H](CC(=O)O)NC(=O)[C@H](CO)NC(=O)[C@@H](NC(=O)[C@H](Cc1ccccc1)NC(=O)[C@@H](NC(=O)CNC(=O)[C@H](CCC(N)=O)NC(=O)C(C)(C)NC(=O)[C@@H](N)Cc1c[nH]cn1)[C@@H](C)O)[C@@H](C)O)C(C)C)C(=O)N[C@@H](CCC(=O)O)C(=O)NCC(=O)NCC(=O)N1CCC[C@H]1C(=O)N[C@@H](CO)C(=O)N[C@@H](CO)C(=O)NCC(N)=O |  | human, plasma | subcutaneous, 16 mg once weekly, week 20, geometric mean |  | MRT | 12.1 days |
